Published values collected from several papers.
“And” joins repeats or separate records; there may be more than shown. ± gives the spread as reported.

| Compound | assay | system | setting | how to read | measurement | value |
| --- | --- | --- | --- | --- | --- | --- |
| COc1ccccc1[C@H](Cn1c(=O)n(C(C)(C)C(=O)O)c(=O)c2c(C)c(-c3ncco3)sc21)OC1CCOCC1 | [1-13C]acetate infusion, isotopomer analysis | overweight or obese healthy men, plasma VLDL-TG palmitate | oral, 200 mg single dose, 3 h post-dose, together with: oral fructose |  | fractional hepatic DNL | 5.74 % new palmitate |
| [Cl-].[Cl-].[Ru+2].c1cnc2c(c1)c1nc[nH]c1c1cccnc12.c1cnc2c(c1)ccc1cccnc12.c1cnc2c(c1)ccc1cccnc12 |  | air-saturated acetonitrile |  |  | singlet oxygen quantum yield | 56% |
| C[C@H](Oc1ccc(Br)cc1-c1ccon1)C(=O)O | muscle velocity recovery cycles | human, tibialis anterior muscle | 400 mg twice daily | reference: placebo | relative refractory period difference | -0.238 ms |
| Cc1ncsc1-c1ccc(CNC(=O)[C@@H]2C[C@@H](O)CN2C(=O)[C@@H](NC(=O)C2(C#N)CC2)C(C)(C)C)cc1 | flow cytometry | bone marrow-derived macrophages, UT+/+, mouse | dose not given |  | F4/80+ cells | 46.4% |
| Cl.N[C@@H](Cc1ccc(Oc2nnc(-c3ccccc3)nn2)cc1)C(=O)O | iEDDA cycloaddition | aqueous DMSO 25 % | 37 °C, together with: TCO-OH 350 µM |  | kobs | 0.03 s⁻¹ |
| OC(CCN1CCCCC1)(c1ccccc1)C1CC2C=CC1C2 (centres unmarked) | resting-state EEG | healthy elderly humans | oral, 4 mg, eyes open, LS mean | reference: baseline | change, Alpha EEG power, in O2-Pz | -12.7% |
| CC(C)NCC(O)c1ccc(O)c(O)c1 (centres unmarked) |  | ventricular cardiomyocytes, C57BL/6 mouse | dose not given, 0.512 s |  | sarcomere length | 1.5 µm |
| NC(=O)c1cnc2[nH]ccc2c1N[C@@H]1[C@@H]2CC3C[C@H]1C[C@@](O)(C3)C2 | CD4+ effector memory T cells, flow cytometry | Caucasian humans, peripheral blood | 200 mg single dose | reference: baseline | percent change | 0.23% |
| Cn1cc(Nc2nccc(-c3ccc4c(c3)CN(C3COC3)CC[C@H]4NC(=O)c3cn(C(C)(C)C)nn3)n2)cn1 | measured: Phospholipase C Signaling | splenic B cells, mouse | in vivo, 30 mg/kg, IgD-activated B cells | reference: vehicle, positive = activation | pathway activation z-score | 3.66 |
| CN(C)C(=O)c1cc2cnc(Nc3ccc(N4CCNCC4)cn3)nc2n1C1CCCC1 | RNA-seq GSEA, measured: HALLMARK_ESTROGEN_RESPONSE_EARLY gene set | MB002 tumour | concentration not given | reference: vehicle, direction not given | enrichment score | 0.233 |
| CO[C@H]1CC[C@H](N2C(=O)CNc3ncc(-c4ccc(C(C)(C)O)nc4)nc32)CC1 | flow cytometry | stimulated monocytes, human, blood | 45 mg single dose, 1.5 h, median | reference: baseline | pAKT change from baseline | -60.3% |
| C[C@H]1C[C@H]2CSC(N)=N[C@@]2(c2nc(NC(=O)c3ccc(OC(F)F)cn3)cs2)CO1 | measured: Aβ1-40 | healthy adults, plasma | 50 mg once daily, day 4 | reference: placebo | percent change from baseline | -87% |
| COc1c(Nc2cc(C(F)(F)F)cc(C(F)(F)F)c2)c(=O)c1=O | HPLC-MS |  | pH 10.2, together with: 50 mM N-α-acetyl-lysine |  | pseudo-first-order rate constant | 6.1 h⁻¹ |
| Cc1n[nH]c2ccc(-c3cc(OC[C@@H](N)Cc4ccccc4)cnc3-c3ccoc3)cc12 | kinase binding, competitor, MIB/MS competition, measured: CMK1 | Candida albicans cell lysate | 100 nM | reference: DMSO | log2 fold change | 0.142 |
| Sc1ncnc2[nH]cnc12 | CoA-CPM signal reduction, CPM fluorescence thiol | cell-free biochemical | assay interference counter-screen, together with: CoA replacing acetyl-CoA |  | IC50 | > 125 µM |
| Cc1noc(C)c1-c1cc(C(O)(c2ccccn2)c2ccccn2)c2nc(C3CC3)[nH]c2c1 | measured: HEXIM1 expression | human, peripheral blood | 0.6 mg, day 8, 1599 study |  | maximum induction | 26.3% |
| CC(C)(C)c1nsc(N)n1 | CoA-CPM signal reduction, CPM fluorescence thiol | cell-free biochemical | assay interference counter-screen, together with: CoA replacing acetyl-CoA |  | IC50 | > 125 µM |
| CO[C@H]1C[C@@H]2CC[C@@H](C)[C@@](O)(O2)C(=O)C(=O)N2CCCC[C@H]2C(=O)O[C@H]([C@H](C)C[C@@H]2CC[C@@H](O)[C@H](OC)C2)CC(=O)[C@H](C)/C=C(\C)[C@@H](O)[C@@H](OC)C(=O)[C@H](C)C[C@H](C)/C=C/C=C/C=C/1C | oral glucose tolerance test | healthy adult horses | dose not given, 90 min, baseline before treatment |  | blood glucose | 162 mg/dL |

| Compound | assay | system | setting | how to read | measurement | value |
| --- | --- | --- | --- | --- | --- | --- |
| CC[C@@H]1[C@H](F)C(=O)N[C@@H]1COc1nccc2cc(C(N)=O)c(OC)cc12 | ATP-site probe binding, ActivX profiling, measured: MARK2, MARK3 | THP-1 cell lysate | 0.01 mM, Lys2 site |  | inhibition | 2.3% |
| C=CCn1c(=O)c2cnc(Nc3ccc(N4CCN(C)CC4)cc3)nc2n1-c1ccc2c(n1)[C@@](O)(CC)CC2 |  | OVCAR-3 xenograft, NOD/SCID mice | oral, 80 mg/kg, day 32, once daily intermittent |  | tumour growth inhibition | 92.2% |
| CC(C)c1ccc(S(=O)(=O)Nc2ccc(O)c(Cl)c2)cc1 | CoA-CPM signal reduction, CPM fluorescence thiol | cell-free biochemical | assay interference counter-screen, together with: CoA replacing acetyl-CoA |  | IC50 | > 125 µM |
| N#Cc1ccc2c(c1)[C@H]1CCCN(C(=O)c3ccc4[nH]cnc4c3)[C@H]1C2 |  | human, plasma | 80 mg, day 15, 360 h | reference: placebo and baseline | change in fasting insulin | -28.4% |
| Nc1ccc(CNc2ccncc2)c(F)c1 |  | male Wistar rat, reserpine-pretreated | intravenous, 270 µg/kg, 5 min, anaesthetized | reference: baseline | mean arterial pressure increase | 43% |
| O=S1(=O)C=C(N2CCC3(CC2)OCCO3)c2ccccc21 | CoA-CPM signal reduction, CPM fluorescence thiol | cell-free biochemical | assay interference counter-screen, together with: CoA replacing acetyl-CoA |  | IC50 | > 125 µM |
| CC1(C)CCC(c2ccc(Cl)cc2)=C(CN2CCN(c3ccc(C(=O)NS(=O)(=O)c4ccc(N[C@H](CCN5CCOCC5)CSc5ccccc5)c(S(=O)(=O)C(F)(F)F)c4)cc3)CC2)C1 | cell killing | canine blood CD3+ T cells, dog 39 | 24 h |  | EC50 | 0.222 µM |
| Cn1cc([C@H]2C[C@H]3CSC(N)=N[C@@]3(c3ccc(F)cc3F)CO2)cn1 | measured: Aβx-40 | wild-type mouse, brain | subcutaneous, 10 mg/kg, 3 h |  | brain Aβ40 level | 1.85 ng/g |
| C[C@@H](NC(=O)N1C(=O)[C@H](Cc2ccnc(N)c2)[C@H]1C(=O)O)C1CCCCC1 |  | human, plasma | continuous intravenous infusion, 1.5 mg/kg/h, days 1 to 6 of 5-day infusion, mean |  | maximum prothrombin time | 13.3 s |
| O=C(CCc1ccccc1Cl)NC1CS(=O)(=O)c2ccccc21 (centres unmarked) | CoA-CPM signal reduction, CPM fluorescence thiol | cell-free biochemical | assay interference counter-screen, together with: CoA replacing acetyl-CoA |  | IC50 | > 125 µM |
| CSCCNc1nc(SCCC(F)(F)F)nc2c1ncn2[C@@H]1O[C@H](COP(=O)(O)OP(=O)(O)C(Cl)(Cl)P(=O)(O)O)[C@@H](O)[C@H]1O | ADP-induced platelet aggregation, Multiplate, AUC >46 U | human patients, whole blood | dose not given, 4 to 6 h |  | patients with high reactivity | 48.5% |
| CN[C@@H]1COc2c(S(=O)(=O)NC(=O)Nc3c4c(cc5c3CCC5)CCC4)cnn2C1 | measured: IL-18 | human participants, whole blood ex vivo | 150 mg single dose, 1 h, IL-18, circulating, adjusted for, together with: LPS/ATP | reference: baseline | inhibition | 94.1% |
| O=C(O)CNC(=O)Cc1ccccc1 |  | ventricular cardiomyocytes, C57BL/6 mouse | dose not given, 0.4 s |  | sarcomere length | 1.72 µm |
| CCCCc1nc2c(N)nc3ccccc3c2n1Cc1ccc(N)cc1 | CD86 expression, flow cytometry | CD20+ B cells in PBMC, human | 100 or 1000 nM |  | CD86 induction | increased |
| N#Cc1ccn2c(-c3ccncc3)c(-c3ccc(F)cc3)nc2c1 | kinase binding, competitor, MIB/MS competition, measured: CDC7 | Candida albicans cell lysate | 10 µM | reference: DMSO | log2 fold change | -0.0995 |
| CCCC(CCC)C(=O)Oc1cccc(C(O)CCN)c1.O=CO (centres unmarked) | OCT at 500 µm from nerve head | Abca4-/-Rdh8-/- mice, photic damage | oral, 10 mg/kg, 7 days, together with: 10,000 lx light, 30 min |  | ONL thickness | 10.3 µm and 8.5 µm and 9.95 µm and 8.85 µm and 11 µm and 7.02 µm |
| Cc1oncc1C(=O)Nc1ccc(C(F)(F)F)cc1 | measured: dihydroorotate | female CD-1 mice, pooled urine | oral, 10 mg/kg daily, 0-8 h after dose 3, 10-day dosing |  | DHO concentration | 90.4 ± 4.33 µM |

A few entries again:
| Compound | assay | system | setting | how to read | measurement | value |
| --- | --- | --- | --- | --- | --- | --- |
| CC(C)c1ccc(S(=O)(=O)Nc2ccc(O)c(Cl)c2)cc1 | CoA-CPM signal reduction, CPM fluorescence thiol | cell-free biochemical | assay interference counter-screen, together with: CoA replacing acetyl-CoA |  | IC50 | > 125 µM |
| N#Cc1ccc2c(c1)[C@H]1CCCN(C(=O)c3ccc4[nH]cnc4c3)[C@H]1C2 |  | human, plasma | 80 mg, day 15, 360 h | reference: placebo and baseline | change in fasting insulin | -28.4% |
| Nc1ccc(CNc2ccncc2)c(F)c1 |  | male Wistar rat, reserpine-pretreated | intravenous, 270 µg/kg, 5 min, anaesthetized | reference: baseline | mean arterial pressure increase | 43% |
| O=S1(=O)C=C(N2CCC3(CC2)OCCO3)c2ccccc21 | CoA-CPM signal reduction, CPM fluorescence thiol | cell-free biochemical | assay interference counter-screen, together with: CoA replacing acetyl-CoA |  | IC50 | > 125 µM |
